Values quoted from earlier work as cited in several papers.
Lines come from different studies, so protocols differ.

| Molecule | test system | setting | how to read | measurement | value |
| --- | --- | --- | --- | --- | --- |
| CCCCC(CC)COC(=O)C(C#N)=C(c1ccccc1)c1ccccc1 (stereo not shown) | human, plasma | topical, 4 times daily days 2-4, day 4, sunscreen | – | Cmax geometric mean | 7.8 ng/mL |
| CO[C@H]1O[C@H](COS(=O)(=O)O)[C@@H](O[C@@H]2O[C@@H](C(=O)O)[C@@H](O[C@H]3O[C@H](COS(=O)(=O)O)[C@@H](O[C@@H]4O[C@H](C(=O)O)[C@@H](O[C@H]5O[C@H](COS(=O)(=O)O)[C@@H](O)[C@H](O)[C@H]5NS(=O)(=O)O)[C@H](O)[C@H]4O)[C@H](OS(=O)(=O)O)[C@H]3NS(=O)(=O)O)[C@H](O)[C@H]2OS(=O)(=O)O)[C@H](O)[C@H]1NS(=O)(=O)O | human, plasma | concentration not given, total concentration | – | Cmax | 840 nM |
| COc1cc(N2CCC(N3CCN(C)CC3)CC2)ccc1Nc1ncc(Cl)c(Nc2ccccc2P(C)(C)=O)n1 | healthy human subjects | oral, 180 mg single dose, together with: high-fat meal | relative to: fasted | Cmax reduction | ~24% |
| CCCCC(CC)COC(=O)C=Cc1ccc(OC)cc1 (stereo not shown) | human, plasma | topical, 2 mg/cm^2 to 75% body surface, day 1, sunscreen | – | Cmax geometric mean | 2 ng/mL |
| CCCCC[C@H](O)/C=C/[C@@H]1[C@H]2C/C(=C/CCCC(=O)O)O[C@H]2C[C@H]1O | human, plasma | concentration not given, total concentration | – | Cmax | 0.99 nM |
| O=C(O)C[C@H](O)C[C@H](O)/C=C/c1c(C2CC2)nc2ccccc2c1-c1ccc(F)cc1 | human | – | relative to: OATP*15 heterozygous over non-carriers | Cmax ratio | 8 fold |
| octreotide | human | oral, 20 mg capsule | relative to: fasting | Cmax reduction by high-fat meal | ~90% |
| C[C@H](Cn1cnc2c(N)ncnc21)OCP(=O)(O)O | human | dose not given, switch from TDF 300 mg to TAF 10 mg regimen | relative to: before switch | Cmax decrease | 89.8% |
| CC(C)NCC(O)c1ccc(O)c(O)c1 (stereo not shown) | human, plasma | concentration not given, total concentration | – | Cmax | 2.7 nM |
| COc1cccc(-c2c(C)n(Cc3c(F)cccc3C(F)(F)F)c(=O)n(C[C@H](NCCCC(=O)O)c3ccccc3)c2=O)c1F | human | 150 mg single dose, together with: rifampin 600 mg once daily, day 1 | relative to: with rifampin over alone | Cmax ratio | 4.37 |

Some of these lines once more:
| Molecule | test system | setting | how to read | measurement | value |
| --- | --- | --- | --- | --- | --- |
| COc1cc(N2CCC(N3CCN(C)CC3)CC2)ccc1Nc1ncc(Cl)c(Nc2ccccc2P(C)(C)=O)n1 | healthy human subjects | oral, 180 mg single dose, together with: high-fat meal | relative to: fasted | Cmax reduction | ~24% |
